Assay results pooled from the literature.
Parts stem from different laboratories: compare values within a part only.

Sample 1
Target: Centromere-binding protein 1, full length, N-terminal tag (CBF1, Saccharomyces cerevisiae, UniProt P17106, residues 1-351)
UniProt P17106, sequence (whole entry, looked up): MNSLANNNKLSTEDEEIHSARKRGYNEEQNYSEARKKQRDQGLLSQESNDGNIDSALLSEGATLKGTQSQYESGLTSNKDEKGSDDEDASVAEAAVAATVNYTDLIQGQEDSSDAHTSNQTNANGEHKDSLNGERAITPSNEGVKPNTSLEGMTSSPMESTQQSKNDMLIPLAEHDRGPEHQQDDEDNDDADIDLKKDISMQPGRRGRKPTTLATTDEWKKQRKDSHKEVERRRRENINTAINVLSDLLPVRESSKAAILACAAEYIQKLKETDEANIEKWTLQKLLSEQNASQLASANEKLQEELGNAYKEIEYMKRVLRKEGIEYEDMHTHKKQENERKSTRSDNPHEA
Method: protein-binding microarray
Form: double-stranded DNA, one strand shown
Sample: in vitro
Concentration: 0.8 µM
Setting: whole 60-bp probe, no competitor
Reading: higher = stronger binding
Endpoint: fluorescence intensity
All sequences stand within: … GTCTTGATTCGCTTGACGCTGCTG
Strand = CTATTTTTGTATTCTGCTGATATCTTTTTCTACTTC; result = 531 a.u.
Strand = GAAACGACAAACTACCACATGAAGTGGCGGAACTAG; result = 476 a.u.
Strand = CTAAGCTAGATTAAAAACGTGCGTATTACTCATTTC; result = 591 a.u.
Strand = CTAAAGAAAATTCAGCACATGCCAGATGGCGAGTTC; result = 775 a.u.
Strand = GAAGCGAAGAAATGCGACGTCATTTACTCATTATAG; result = 511 a.u.
Strand = CTACTCTGCGCAGTGCACGTTCAAAAGAAAAGCTTC; result = 591 a.u.
Strand = GAAGAGTGTGTACATGTGACAAAAAAGATTGGATAG; result = 4490 a.u.
Strand = CTACATTCATATTTACATGTGCGTTACTACTTATTC; result = 624 a.u.
Strand = CTATGAGTTCTACGTGGTGCAAAAATATTTTTTTTC; result = 547 a.u.
Strand = GAACACAATTAATGTCATGTGGCCGACGTAATGTAG; result = 1970 a.u.
Strand = CTACAGTTAAAACACCACCAATATTTCCAGAAATTC; result = 541 a.u.
Strand = GAATCACTTGATGTCATCAAGGCATTCACCAGATAG; result = 550 a.u.
Strand = GAATTAAGAGGACCTCATCAGACATGCTCGGACTAG; result = 480 a.u.
Strand = GAATTCGTGCTGATCCACGGGGTATTCAATTGATAG; result = 704 a.u.
Strand = CTACGTAATTGGAAACACGCAATTTTAACTTTGTTC; result = 522 a.u.
Strand = CTAGGACAATTCCATTTGATGTCACCGTGGTAATTC; result = 511 a.u.
Strand = GAATTTTTCTACGTAATCATGATGATCTTTTTTTAG; result = 532 a.u.

Sample 2
Target: RING finger protein unkempt homolog, zinc fingers 1-6, GST-SBP tag (UNK, Homo sapiens, UniProt Q9C0B0, residues 30-357)
Method: RNA Bind-n-Seq
Form: RNA
Sample: in vitro
Concentration: not given
Setting: RNA with constant flanks, human and mouse sites, ends assumed
Baseline: input RNA pool
Reading: higher = stronger binding
Endpoint: bound/input enrichment
All sequences stand within: GGGAGUUCUACAGUCCGACGAUC … CAACAGAGGAUUGAGCAUCA
Construct (chain): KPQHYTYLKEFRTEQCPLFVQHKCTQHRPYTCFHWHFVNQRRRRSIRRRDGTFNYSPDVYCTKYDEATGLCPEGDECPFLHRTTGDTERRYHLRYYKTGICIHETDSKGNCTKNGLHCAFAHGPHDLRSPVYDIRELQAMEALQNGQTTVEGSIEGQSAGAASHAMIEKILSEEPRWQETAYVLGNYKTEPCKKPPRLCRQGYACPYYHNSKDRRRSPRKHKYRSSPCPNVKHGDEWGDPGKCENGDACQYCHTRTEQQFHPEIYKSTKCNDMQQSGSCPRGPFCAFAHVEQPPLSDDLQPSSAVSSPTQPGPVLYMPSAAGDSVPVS
Strand = CCUCUUCUGGCCUGUCUGCUUGGCAAUGACAUCACUCCAGAGAGCAUGUUUGAAAGCUUUCGGUACAAGUGCUUGUCAUCCUAUGCUUCUGUGAAAGAGAAUGCUGGCAAAAAAGGAAAU; result = 0.133 ratio
Strand = CGAGAAGUAGGAAUCCCUCCAGAACAAUCCUUGGAAACUGCUAAGGCAGUAAAGGAGCGCUAUAGUUAUGUCUGCCCAGAUUUAGUAAAAGAAUUUAACAAGUAUGAUACAGAUGGGUCA; result = 8.72 ratio
Strand = ACAACAGCUAGAGCUUUUGCUGUCGUAGCCUCUGCCCUGGGCAUCCCUUCUUUAUUGCCUUUCUUAAAAGCUGUGUGCAAAAGCAAGAAGUCUUGGCAAGCGAGGCACACUGGUAUUAAG; result = 0.126 ratio
Strand = UUAGCUUAUGGCAAUCAAGAGAGCAAGCUCAUCAUUCUGGCCAGUGGUGGACCCCAAGCCUUAGUAAACAUAAUGAGGACCUACACUUAUGAGAAGCUUCUGUGGACCACAAGCAGAGUG; result = 3.4 ratio
Strand = GGCCAGGUGCUGAGCCUCUGCAGCAGCAUCAAGGAGGCCCCCGUCAAGGCGGCCGAGAUCUGGAUCGCCUCCCUGUCCAGCCAGCCCAUUGACCACGAAGACAGCACCAUGCAGGCCGGC; result = 0.0889 ratio
Strand = AAGAUUGGGCUUAUUCAGUUUUGCUUAUCUGCUCCUAAAACAGAUAUGGAUAAUCAAAUAGUAGUAUCUGACUAUGCCCAGAUGGAUCGAGUGCUUCGAGAGGAGAGAGCCUAUAUUUUA; result = 0.242 ratio
Strand = AAAGGAAUUACCGAACAGCAAAAAGAAGGUCUUGAGAUAGUGAAAAUGGUGAUGAUAUCUUUAGAAGGUGAAGAUGGGUUGGAUGAAAUUUAUUCAUUCAGUGAGAGUCUGAGAAAACUG; result = 0.563 ratio
Strand = UUUCUUCCCCCUACCUCUGUGGCUGGUGCCACUCUGUACUCAGUGGCAAUGUAUGGUGGAUUAGUUCUUUUCAGCAUGUUCCUUCUGUAUGAUACUCAGAAAGUAAUCAAACGUGCAGAA; result = 0.548 ratio
Strand = UACAGAGGAAGGGGUAGAGGGUAUUAUCAAGGAGGAGGAGGUAGAUAUCAUCGAGGUGGUUAUAGACCUGUCUGGAAUAGAAGGCACUCUAGGAGUCCUAGACGAGGUCGUUCACGUUCC; result = 0.386 ratio
Strand = GGCGUGCUCUGCGUGCUGUCCGCGGACAAGAACACGACCCAGCACCCGAACGUGACGACUUUAGCGCCCAUCUCCAACGUAACCUCGGCGCCGGUGACGUCCCUCCCGCUGGUCACCACU; result = 0.126 ratio
Strand = AGAGAAAUCCUGUCAGAUGACAAGCAUGACUGGGAGCAGAGAGUAAAUGCUCUAAAAAAGAUUAGAUCGUUACUCUUGGCUGGGGCUGCUGAGUACGAUAACUUCUUUCAACACUUGCGU; result = 0.114 ratio

Sample 3
Target: RNA binding protein fox-1 homolog 2, RRM domain, GST-SBP tag (RBFOX2, Homo sapiens, UniProt O43251-10, residues 100-194)
Method: RNA Bind-n-Seq
Form: RNA
Sample: in vitro
Concentration: 365 nM
Setting: natural RNA segment, single round, ends assumed
Baseline: no-protein control
Reading: higher = stronger binding
Endpoint: RBNS enrichment (R)
All sequences stand within: GGGAGUUCUACAGUCCGACGAUC … UGGAAUUCUCGGGUGCCAA
Residues (chain): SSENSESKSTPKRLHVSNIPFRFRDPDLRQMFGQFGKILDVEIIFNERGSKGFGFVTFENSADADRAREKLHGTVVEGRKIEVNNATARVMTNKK
Strand = AUCAUCAACCCCCAACCCUCUGGGUCUCUUGGAUUUCAGAGUGAAAACUUGAUUGGCAUUGAGAGGUGGAGCCAGGGGCUGAAGGAUGGGUCAGGAGGAGGGAGACAUGU; result = 0.619
Strand = CUGUGAGGAGUUACGGAGAGGGCUUUGUCUCUAGAGCAGAAGAGAAUGAUGGGACGGCCUGAUGCUGUCAUGCUCUCCACUGCACCUGUGGCAGCCUCCUGAGAGCCACC; result = 0.569
Strand = UUGGAGGUUAGAUAAUGAAACCCGAGACUGUCUUCAGAAUAUAUACAAUCUGAAUAGUGUGCUGUCAGGAGUGGUUUGUCGGAGCAGCGCUUGCCACAAUGAUUCCGUGU; result = 1.15
Strand = AAGUUUUAAGACCCCUGAAACAGCUAAAACAGGUUUCCAAAGUGUAAUCACUGGAUUUCAAAACCAUGUUUUAGCCCUUCAUUAAUGAAGCCUGUUGUACAGAUUUAGAG; result = 0.299
Strand = AUCCUUUGUAUCAUAGCAAAGGAAAUGUUUAAAAGAUCAACUGUAAUAAAAGUAAUUUUAGUACACAUGUCUGCUCACUUUAUUUUUUAGAUUUUGUUUUAUUUGUUUAU; result = 5.17
Strand = UAGGUAUUAGUGCUAGUCUCAGAUAGGUGCUUCCCCUGAGGUGCAGGGGAAGACCAAAGUUUGCAACUCGAACUGCUUUCGUCCAUGUUUCUCACAUUGCUGUAUUUUAG; result = 0.512
Strand = CUGUAGGGUUCACUCUUCUGCAGUCACUUUAGCUUUCUGCAGAAGUCUAGAUUUUAAAUUAACUGUAGAAGGAAGUCAGACACCCACAGGUUUCUUCUAAUCAAGCUUCC; result = 0.602
Strand = UGCAUGUCCCUGCUUCCAAAGCCUGACCUUCCAAAGCUUGCUUCCUUCCUCCUGGCUGCACAGACACCUCUGCUUGGCCACAGCUUUGCUCUUUGGUCCUCAGGCCACCA; result = 4.67
Strand = UGUUCUUUCUUCCCAUCUAGGGCUAUUGCCCAAGGCCCAGAGAAACCAAUAAACUUGUACACGAGUGAUCCACAGUUGAGUCAAUGUGGCUCCGAAGGGGCGCUCUUGUC; result = 0.28
Strand = AAAAUGAUUAUAACCAGUUGCACCCUGUAUUUCUUUUUGCAGCCAGCACAAUGUGACCCAACUUAAAAUUUGGGGGAAAAAGAAUGCAGGAGUGAAAUAACCAAGUCAAA; result = 0.568
Strand = GUAUGCAUAGAGCAUCUCCCCUGCCGGGUGUGUGAAUAACAUUGAAGCCCUCUGAGAAAGCAGGGCAAAUAGGGUGUAAGGGGCUUGGUUUUUCUGUUAGCUUGGACCAC; result = 1.06
Strand = GGCAUGCACCACCAUGCCCGGCUAAUUUUUUUGUGUUUUUAGUAGAGAUGGGGUUUCACCGUGCUGGCCAGGCUGGUCUAGAACUCCUGACUGCAAAUGAUCAGCCCGCC; result = 0.847

Sample 4
Target: Sal-like protein 4, full length isoform A (SALL4, Homo sapiens, UniProt Q9UJQ4, residues 1-1053)
UniProt Q9UJQ4, sequence (whole entry, looked up): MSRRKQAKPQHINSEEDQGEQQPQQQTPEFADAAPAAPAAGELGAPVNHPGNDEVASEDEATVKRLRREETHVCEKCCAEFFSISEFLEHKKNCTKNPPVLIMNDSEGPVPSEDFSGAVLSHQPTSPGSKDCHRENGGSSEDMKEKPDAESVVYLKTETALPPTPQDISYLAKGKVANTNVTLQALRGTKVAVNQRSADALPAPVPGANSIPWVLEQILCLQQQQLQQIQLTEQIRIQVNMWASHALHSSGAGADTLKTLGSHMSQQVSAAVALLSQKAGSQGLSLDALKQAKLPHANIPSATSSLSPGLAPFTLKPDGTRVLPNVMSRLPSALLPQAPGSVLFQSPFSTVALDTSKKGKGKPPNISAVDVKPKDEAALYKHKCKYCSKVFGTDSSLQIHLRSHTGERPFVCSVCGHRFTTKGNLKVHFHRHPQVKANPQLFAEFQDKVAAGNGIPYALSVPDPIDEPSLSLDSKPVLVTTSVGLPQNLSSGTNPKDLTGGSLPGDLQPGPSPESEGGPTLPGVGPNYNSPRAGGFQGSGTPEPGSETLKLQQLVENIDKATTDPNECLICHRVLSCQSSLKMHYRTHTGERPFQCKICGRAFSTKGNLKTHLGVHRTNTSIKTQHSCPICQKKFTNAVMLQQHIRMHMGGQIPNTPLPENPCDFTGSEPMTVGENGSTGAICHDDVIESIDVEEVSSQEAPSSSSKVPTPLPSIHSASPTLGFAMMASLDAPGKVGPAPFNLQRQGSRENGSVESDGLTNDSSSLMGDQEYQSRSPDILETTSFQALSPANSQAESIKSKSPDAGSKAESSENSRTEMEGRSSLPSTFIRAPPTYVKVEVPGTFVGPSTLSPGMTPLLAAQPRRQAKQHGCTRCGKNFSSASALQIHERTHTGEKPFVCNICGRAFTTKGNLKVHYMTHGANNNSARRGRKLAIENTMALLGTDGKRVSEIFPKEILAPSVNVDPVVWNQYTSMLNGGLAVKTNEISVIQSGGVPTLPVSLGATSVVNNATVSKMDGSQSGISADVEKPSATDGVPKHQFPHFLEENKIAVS
Method: universal PBM
Form: double-stranded DNA, one strand shown
Sample: in vitro
Concentration: 600 nM
Setting: 8-mer, flanks averaged, mean of replicates
Reading: higher = stronger binding
Endpoint: E-score
Strand = CCCAAGCG; result = -0.314
Strand = CGTGGAAA; result = 0.158
Strand = AAAGTGGC; result = -0.1
Strand = GGATCAGA; result = -0.0649
Strand = AGCTTTGC; result = -0.0192
Strand = AGGCCGGG; result = -0.296
Strand = CGACGCTC; result = -0.0605
Strand = AACAAGTA; result = 0.24
Strand = AGCAAGAA; result = 0.17
Strand = GATTGAAC; result = 0.0185
Strand = ATTTCATC; result = 0.267
Strand = ATGGGTTA; result = 0.156
Strand = TTGACAAA; result = 0.309
Strand = CGAGTAAC; result = 0.0998
Strand = AGAACGAG; result = 0.0542
Strand = AAGAATAG; result = 0.2
Strand = AAGACGGT; result = -0.0834
Strand = CGCAACGA; result = -0.124
Strand = ACCCTTTA; result = 0.0779
Strand = AGCGGTCC; result = -0.247
Strand = ATACGGAC; result = 0.0178
Strand = CAAGACAC; result = 0.0497
Strand = ATTCAGGC; result = -0.0411
Strand = AAGGCTCC; result = -0.293
Strand = CCGGGCGA; result = -0.308

Some of these lines once more (sample 4):
Strand = AAAGTGGC; result = -0.1
Strand = GGATCAGA; result = -0.0649
Strand = AGCTTTGC; result = -0.0192
Strand = AGGCCGGG; result = -0.296
Strand = CGACGCTC; result = -0.0605
Strand = AACAAGTA; result = 0.24
Strand = AGCAAGAA; result = 0.17
